# Measured values of several laboratories.
# A part holds a random share of what one study measured. Positions count from the first letter of the parent shown.

# Sample 1
# Target: Histone acetyltransferase KAT6A, winged helix 1, GST fusion (KAT6A, Homo sapiens, UniProt Q92794, residues 1-85)
# Method: protein binding microarray
# Form: double-stranded DNA, one strand shown
# Sample: in vitro
# Tested at: not given
# Notes: 8-mer, flanks averaged, mean of 2 arrays, mostly near background
# Relative to: not given
# Direction: higher = stronger binding
# Construct (chain): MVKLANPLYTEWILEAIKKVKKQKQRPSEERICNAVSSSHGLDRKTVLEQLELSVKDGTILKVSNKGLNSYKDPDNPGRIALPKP
Oligonucleotide,E-score
AATTTATA,-0.143
CTCTGACC,-0.0775
CCCTACCA,-0.112
GTTTAAAC,0.141
GGCCACCC,0.0964
GATTCTTA,-0.063
ACGAGGGC,0.0277
CACAAGAC,-0.149
CCCTGCCC,-0.172
AGGGCTGC,-0.0767
ACCACAAT,-0.162
CGGGCTAC,0.176
CGGTTGTA,0.145
ACTATCAA,-0.0365
ACCTGAAG,-0.0396
CCTAAGAA,-0.174
TAAGGCGA,0.00918
AAATCCCG,0.216

# Sample 2
# Target: Sal-like protein 4, full length isoform A (SALL4, Homo sapiens, UniProt Q9UJQ4, residues 1-1053)
# UniProt Q9UJQ4, sequence (whole entry, looked up): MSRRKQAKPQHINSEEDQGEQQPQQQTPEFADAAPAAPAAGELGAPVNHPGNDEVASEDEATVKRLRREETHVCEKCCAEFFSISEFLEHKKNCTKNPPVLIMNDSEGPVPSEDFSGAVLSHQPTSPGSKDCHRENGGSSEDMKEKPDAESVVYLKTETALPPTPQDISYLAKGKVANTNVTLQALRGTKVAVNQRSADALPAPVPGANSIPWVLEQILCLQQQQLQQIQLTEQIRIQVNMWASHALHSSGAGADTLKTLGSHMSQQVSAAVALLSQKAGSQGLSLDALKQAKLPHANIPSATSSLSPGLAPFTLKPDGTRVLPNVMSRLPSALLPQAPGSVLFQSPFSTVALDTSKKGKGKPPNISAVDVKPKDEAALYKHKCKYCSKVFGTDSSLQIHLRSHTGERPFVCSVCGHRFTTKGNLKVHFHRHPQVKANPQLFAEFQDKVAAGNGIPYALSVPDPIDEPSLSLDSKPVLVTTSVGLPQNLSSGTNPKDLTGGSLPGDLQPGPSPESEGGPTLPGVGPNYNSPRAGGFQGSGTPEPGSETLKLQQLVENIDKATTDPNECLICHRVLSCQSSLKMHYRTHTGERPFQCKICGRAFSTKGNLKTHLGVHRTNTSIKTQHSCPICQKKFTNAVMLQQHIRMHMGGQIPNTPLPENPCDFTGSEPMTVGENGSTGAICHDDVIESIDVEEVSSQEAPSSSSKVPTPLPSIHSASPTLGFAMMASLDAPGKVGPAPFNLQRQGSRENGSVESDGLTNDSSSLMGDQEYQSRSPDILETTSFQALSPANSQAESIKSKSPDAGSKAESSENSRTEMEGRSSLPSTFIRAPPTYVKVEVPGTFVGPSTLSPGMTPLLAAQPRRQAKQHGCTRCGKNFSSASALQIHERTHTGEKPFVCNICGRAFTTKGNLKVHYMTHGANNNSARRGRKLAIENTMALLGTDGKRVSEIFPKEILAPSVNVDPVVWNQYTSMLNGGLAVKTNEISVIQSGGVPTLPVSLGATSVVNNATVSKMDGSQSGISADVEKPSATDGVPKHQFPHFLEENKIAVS
# Method: universal PBM
# Form: double-stranded DNA, one strand shown
# Sample: in vitro
# Tested at: 600 nM
# Notes: 8-mer, flanks averaged, mean of replicates
# Direction: higher = stronger binding
Oligonucleotide,E-score
GGAATCGA,-0.172
AGCTTGAA,0.0822
CATCTATC,0.0722
ACGTCGTC,-0.0845
ACGCCTAC,-0.262
CTCGCCCA,-0.121
TACAGTGA,0.122
AGTCAACA,0.169
GCGAGAAA,0.0326
ACTCTTTA,0.103
CCAGGCCC,-0.361
CCGTTCCG,-0.177
CGTTGAGA,-0.125
CCCCGCGG,-0.392
GACCGGAA,-0.312
ACTAACGA,0.0994
AATCCTCA,0.114
AGAGTGGC,-0.156
ATTTTGGA,0.331
CAGACAGG,-0.218
GAATGGGC,-0.166
AGTAAACG,0.0203
CCGCAGAC,-0.296
CGCGTGTC,-0.241
ATGAACGC,0.052

# Sample 3
# Target: Ras GTPase-activating protein-binding protein 1, full length (G3BP1, Homo sapiens, UniProt Q13283)
# UniProt Q13283, sequence (whole entry, looked up): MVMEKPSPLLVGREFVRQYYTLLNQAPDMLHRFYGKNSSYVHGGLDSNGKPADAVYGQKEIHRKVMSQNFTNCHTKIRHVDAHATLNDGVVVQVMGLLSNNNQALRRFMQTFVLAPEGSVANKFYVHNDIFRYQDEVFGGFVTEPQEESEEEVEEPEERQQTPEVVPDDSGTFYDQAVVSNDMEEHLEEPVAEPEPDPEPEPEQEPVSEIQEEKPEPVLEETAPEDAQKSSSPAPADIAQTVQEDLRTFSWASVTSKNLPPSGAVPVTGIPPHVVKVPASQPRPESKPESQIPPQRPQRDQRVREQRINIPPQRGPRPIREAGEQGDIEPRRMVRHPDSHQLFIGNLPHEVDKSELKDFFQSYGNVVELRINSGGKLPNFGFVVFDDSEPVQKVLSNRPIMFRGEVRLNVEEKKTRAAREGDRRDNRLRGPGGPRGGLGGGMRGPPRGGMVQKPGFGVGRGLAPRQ
# Method: RNA Bind-n-Seq
# Form: RNA
# Sample: in vitro
# Tested at: 200 nM
# Notes: whole 134-nt RNA, ends assumed
# Together with: 150 mM KCl
# Relative to: input library
# Direction: higher = stronger binding
Oligonucleotide,log2 enrichment
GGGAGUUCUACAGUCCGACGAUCAAGUCCUGUGCUACACAUCGUAUGUACCGAAUCAAACCCAAAUUUAAACCCCCAAAAAAGUAUUAUGUUACGCCGUUCGGAUCUGCACUUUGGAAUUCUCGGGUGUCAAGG,-0.51
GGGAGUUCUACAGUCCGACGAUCUUUGCUUGCAGUAUCUGUUUCUCUUCCUAGGCUCAAGUUGGUGACCCAAGCCUAUUGUAAACAAGUGAUUAUCUCAAAGGGAGAUGCCAAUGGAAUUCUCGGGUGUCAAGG,-0.206
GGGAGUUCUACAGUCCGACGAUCUAACUUUAGAGGAGGAUCUGAUGGAUACGGCAGUGGACGUGGAUUUGGGGAUGGCUAUAAUGGGUAUGGAGGAGGACCUGGAGGUGGCAAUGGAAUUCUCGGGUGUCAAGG,0.392
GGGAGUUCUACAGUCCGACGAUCAGUCCUGUGCUACACAUCGUAUGUACCGAAUCAAAUUUAAAUUUAAACCCCCCCAAAAAAGUAUUAUGUUACGCCGUUCGGAUCUGCACUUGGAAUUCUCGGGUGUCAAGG,-0.0485
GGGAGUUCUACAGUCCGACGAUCUGUGCUACACAUCGUAUGUACCGAAUCGGGGAAAAAAAGGGGUUUUUGGGGAAAAAAAGGGGAAAGUAUUAUGUUACGCCGUUCGGAUCUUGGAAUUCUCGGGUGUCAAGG,-0.307
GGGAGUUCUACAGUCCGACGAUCCAAGUCCUGUGCUACACAUCGUAUGUACCGAAUCGGUUUUUGGUUUUUUUGGUGGAAAGUAUUAUGUUACGCCGUUCGGAUCUGCACUUCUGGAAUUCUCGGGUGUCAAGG,-0.96
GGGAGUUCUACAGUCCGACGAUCUGGCCCUGGUGGCAUGCGGGGAGGAACAGGUGGCCUCAUGGAUCGUGGUGGUCCCGGUGGAAUGUUCAGAGGUGGCCGUGGUGGAGACAGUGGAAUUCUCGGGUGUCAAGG,0.193
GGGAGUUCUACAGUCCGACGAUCUGCCCCUGGUGGCAUGCGGGGAGGAAGAGGUGGCCUCAUGGAUCGUGGUGGUCCCGGUGGAAUGUUCAGAGGUGGCCGUGGUGGAGACAGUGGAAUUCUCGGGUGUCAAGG,0.266
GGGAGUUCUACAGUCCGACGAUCUUUCACAGAGAAGCAAAUGCUGGCACAAGGAUACCCUGCUUACACGACAUCGUGCGCCUGGCUGGGGUACUCAGAUGACACGUUGAAGCAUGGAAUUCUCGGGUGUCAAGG,-0.474
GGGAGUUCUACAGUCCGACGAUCUGGCCCUGGUGGCAUGCGGGGAGGAAGAGGUGGCCUCAUGGAUCGUGGUGGUCCCGGUGGAAUGUUCAGAGGUGGCCGGGGUGGAGACAGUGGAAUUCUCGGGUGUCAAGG,0.187
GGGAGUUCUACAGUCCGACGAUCAAGUCCUGUGCUACACAUCGUAUGUACCGAAUCAAAUUUAAAUUUUUAAACCCAAAAAAGUAUUAUGUUACGCCGUUCGGAUCUGCACUUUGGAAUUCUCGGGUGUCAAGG,-0.401
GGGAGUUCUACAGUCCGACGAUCUGUGAGACUGAAGAUUAUGGAGAAAAGUUUGAUGAAAAUGAUGUGAUUACAUGUUUUGCUGUAAGUUAAAGCUAACUUUCUAUGUAUAAAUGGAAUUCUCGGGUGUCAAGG,-1.36
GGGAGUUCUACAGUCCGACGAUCUCCUCAAGUCCUGUGCUACACAUCGUAUGUACCGAAUCGGGAGGAGGAGGGGAAAGUAUUAUGUUACGCCGUUCGGAUCUGCACUUCCAGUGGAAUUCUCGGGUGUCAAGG,0.257
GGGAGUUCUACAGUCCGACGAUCCACAGACAACACGCACCCACACAGACACAGAGGGAAGGGGUUGGGAUGGGGACAGGGUGCACAGCAGGGCGGGGUAGGACCCCAAAACCUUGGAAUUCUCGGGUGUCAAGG,1.89

# Sample 4
# Target: CCNA2, cyclin fold, Cln2 fusion (human)
# Method: yeast growth competition, sequencing
# Sample: yeast
# Notes: strong parent motif
# Relative to: not given
# Direction: higher = stronger binding
# Starting sequence: CDC6 docking peptide (human); TLKGRRLVFDNQL
Substitution,normalised enrichment score
TLKGRPLVFDNQL [R6P],-0.976
TLKGERLVFDNQL [R5E],-0.343
HLKGRRLVFDNQL [T1H],4.2
TLKGRRLVFDSQL [N11S],2.26
TLKGSRLVFDNQL [R5S],0.18
TLKGRRMVFDNQL [L7M],1.05
TLKGRRLVFKNQL [D10K],1.46
TLKGRCLVFDNQL [R6C],1.44
TLKGRRLVFDNDL [Q12D],3.75
TLKGRRLVFDWQL [N11W],1.94
TLKGRKLVFDNQL [R6K],2.66
TLKGRRLVFRNQL [D10R],1.67
TLKGRLLVFDNQL [R6L],1.33
TLKGRRLVADNQL [F9A],0.372
ILKGRRLVFDNQL [T1I],2.71

# Sample 5
# Target: RNA binding protein fox-1 homolog 2, RRM domain, GST-SBP tag (RBFOX2, Homo sapiens, UniProt O43251-10, residues 100-194)
# Method: RNA Bind-n-Seq
# Form: RNA
# Sample: in vitro
# Tested at: 365 nM
# Notes: natural RNA segment, single round, ends assumed
# Relative to: no-protein control
# Direction: higher = stronger binding
# Target sequence (chain): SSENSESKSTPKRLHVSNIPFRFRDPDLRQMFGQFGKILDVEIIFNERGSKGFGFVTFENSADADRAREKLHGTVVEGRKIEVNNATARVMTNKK
Oligonucleotide,RBNS enrichment (R)
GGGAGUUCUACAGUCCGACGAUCUCCGCUGUGGUGGCUGCCAAGAUGCCUUCUUAAACUUAUGCAAGGAAACCAAACCCUCCCACAGUUCCCAAGCAGACACUGGAAGCAGAGGCUUCUCACCCUUCCUGCUUUGGAAUUCUCGGGUGCCAA,0.364
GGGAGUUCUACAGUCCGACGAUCAAACAUUCUGGAGUAUGUAUAGCUUUAAUGAAUGAAAUUUAAUGGACCUGAUUAAAAUGAAGGGAUUUAAUCGUUGUUAAAGUUAAGUUAGUCAAAUAAAUUACCUACUGUGGAAUUCUCGGGUGCCAA,0.675
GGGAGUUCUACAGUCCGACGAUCUCUCACCGGGUGAUUCAUCAAAUUACCUACCAAGAGCUCCAAGAGGGGCUCCCUGCAAUGGACGAGGAGGCUCUAAAGCCAGCCUAAGGCACUGAUUGUGGAAGAUCUGGUGGAAUUCUCGGGUGCCAA,0.389
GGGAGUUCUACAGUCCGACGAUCAUCCUAGUGUCCCUCCCUCCUGCAUCUCCUGGUCUCCUUCUCCAGGACCUUCCCAGCUUCCCCUCAGGGUCCACAUCUUGAGCUUAAUAAAUGUGCAUUCGUUUUUUCCCUGGAAUUCUCGGGUGCCAA,1.15
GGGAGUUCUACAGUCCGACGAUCAGGCAGUUACUCUUCCGAGUUUAUACUCGCCUCUUCUUUAAGAGGAUUUCCUGAAAAGGGAACACCGGAAUUUGAUUUGUGGCCAAAUUUACUGAGAAAAAGAUGAGGUUUGGAAUUCUCGGGUGCCAA,0.477
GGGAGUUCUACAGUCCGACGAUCCUCAGGGCCCCCACAGGGGAAGGACCCAGCUCCUGUACAUACAUUUUAUUGCAUGCACUGUGACCUUGGGGGGAGACAAAGAGGGGGAUUGUACCCCCACCCCCUGCACCUGGAAUUCUCGGGUGCCAA,0.956
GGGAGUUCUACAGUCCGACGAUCGACAUGGUGGUGGGGGAAGGACGGGUGGGCAAGGCUGGUGCGUUCCCCAGCUCUCCCUACGCUGCUCGGGCCAUUGCCCAGCCAGAUGUGGUCACCUCAGUCCAGCUCUGUGGAAUUCUCGGGUGCCAA,0.413
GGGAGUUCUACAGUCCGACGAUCGACCCAUUCAAGGCUAGCACAGUUAAGAGAACUUCAGCUAAUUCUUAUUUUCCUGAGUUAGAUCCCAGCCCAUGCCCAGCUGGAAGGGUCUCUUUUGGGUCAAAAUCAGUUGGAAUUCUCGGGUGCCAA,0.301
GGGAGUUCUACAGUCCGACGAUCCCCCCAUAUGCCCAGUCUUGCUUGAAGUAGCACAGACCCUGUGUGGGUUUGGCCCCUAGCUCCCACCAUGCUCCAUAGCAAAUGGCUAAAUUAAUAAAGAAGCAAAACUGUGGAAUUCUCGGGUGCCAA,0.314
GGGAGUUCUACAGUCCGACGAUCUCUAUACCUUUGUGCACAGUUGAAUGGGAACUGUUUGGGUUUAGGGCAUCUUAGAGUUGAUUGAUGGAAAAAGCAGACAGGAACUGGUGGGAGGUCAAGUGGGGAAGUUGUGGAAUUCUCGGGUGCCAA,11.2
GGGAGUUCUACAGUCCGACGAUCAACCUCCUGCCUCCCAAUACCAGCAGGAGGUUCUGGGCCUCUGAACCCCCUUUCCCCACACCUCCCCCUGCUGCUGCUGCCCCAGCGUCUUGACGGGAGCAUUGGCCCCUUGGAAUUCUCGGGUGCCAA,0.463
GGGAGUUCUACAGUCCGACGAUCACAGCUGCUGGCGCUACAAUUAGUGAGGCGAAAAUAACCACGAUCCACAUUACCAUCAAGCCCUUGACAUUCGCAGCACUUGCUGUGGGGAAAGCAGGCCAAGAACUUGUUGGAAUUCUCGGGUGCCAA,0.385

# Sample 6
# Target: Myc proto-oncogene protein, bHLH-zipper, MAX partner unstated (MYC, Homo sapiens, UniProt P01106, residues 368-449)
# UniProt P01106, sequence (368-449, looked up): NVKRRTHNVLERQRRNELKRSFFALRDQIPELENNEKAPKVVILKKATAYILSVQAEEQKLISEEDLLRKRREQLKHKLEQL
# Method: protein-binding microarray
# Form: double-stranded DNA, one strand shown
# Sample: in vitro
# Tested at: not given
# Notes: k-mer, scored over probes, only values ≥0.25
# Direction: higher = stronger binding
Oligonucleotide,E-score
GCCCTCCC,0.316
CCCACACG,0.374
ACCACGCG,0.484
ACACCGCG,0.28
AGCGCGCG,0.282
CATGATGC,0.308
CACGCTAG,0.335
AGGTGCGG,0.257
ACATGGGT,0.309
ATGCGAGG,0.251
AGAGCATG,0.383
CGCGACAC,0.26
CGTGCCTC,0.329
GCCGCACC,0.331

# Some of these lines once more (sample 2):
Oligonucleotide,E-score
CATCTATC,0.0722
ACGTCGTC,-0.0845
ACGCCTAC,-0.262
CTCGCCCA,-0.121
TACAGTGA,0.122
AGTCAACA,0.169
GCGAGAAA,0.0326
ACTCTTTA,0.103
